# Measured values gathered from unrelated publications.
# Parts stem from different laboratories: compare values within a part only. Positions count from the first letter of the parent shown.
# Chain of UniProt Q9ZTX9 (whole entry, looked up): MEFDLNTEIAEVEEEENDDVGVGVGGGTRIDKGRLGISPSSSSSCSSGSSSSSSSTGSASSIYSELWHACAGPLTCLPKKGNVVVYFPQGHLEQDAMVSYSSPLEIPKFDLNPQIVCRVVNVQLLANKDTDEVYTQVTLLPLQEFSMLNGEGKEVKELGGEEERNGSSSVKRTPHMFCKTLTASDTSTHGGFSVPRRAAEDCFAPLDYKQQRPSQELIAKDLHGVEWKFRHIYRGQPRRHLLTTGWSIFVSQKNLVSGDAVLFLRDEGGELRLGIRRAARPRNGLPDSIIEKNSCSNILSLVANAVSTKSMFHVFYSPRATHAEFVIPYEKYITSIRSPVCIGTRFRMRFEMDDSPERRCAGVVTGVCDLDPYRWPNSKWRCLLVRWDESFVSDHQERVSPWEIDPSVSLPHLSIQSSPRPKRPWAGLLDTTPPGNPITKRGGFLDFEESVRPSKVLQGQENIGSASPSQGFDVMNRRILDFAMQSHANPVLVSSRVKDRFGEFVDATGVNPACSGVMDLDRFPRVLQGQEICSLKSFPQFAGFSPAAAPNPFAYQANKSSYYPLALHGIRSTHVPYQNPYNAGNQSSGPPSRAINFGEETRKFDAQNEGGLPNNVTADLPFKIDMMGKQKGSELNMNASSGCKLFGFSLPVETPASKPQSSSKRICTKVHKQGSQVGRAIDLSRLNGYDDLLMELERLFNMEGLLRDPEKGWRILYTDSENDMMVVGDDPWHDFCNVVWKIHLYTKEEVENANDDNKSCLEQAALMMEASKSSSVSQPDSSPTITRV
# Chain of UniProt Q9ZSY8 (whole entry, looked up): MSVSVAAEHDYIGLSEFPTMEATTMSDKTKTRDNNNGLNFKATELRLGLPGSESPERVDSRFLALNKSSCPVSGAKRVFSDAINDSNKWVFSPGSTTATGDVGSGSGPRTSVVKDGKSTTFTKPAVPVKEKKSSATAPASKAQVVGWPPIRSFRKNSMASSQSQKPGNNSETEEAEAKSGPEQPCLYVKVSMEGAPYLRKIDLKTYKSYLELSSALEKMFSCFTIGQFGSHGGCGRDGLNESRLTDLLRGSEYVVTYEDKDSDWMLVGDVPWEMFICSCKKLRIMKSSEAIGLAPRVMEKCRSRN
# Chain of UniProt Q9XFM0 (whole entry, looked up): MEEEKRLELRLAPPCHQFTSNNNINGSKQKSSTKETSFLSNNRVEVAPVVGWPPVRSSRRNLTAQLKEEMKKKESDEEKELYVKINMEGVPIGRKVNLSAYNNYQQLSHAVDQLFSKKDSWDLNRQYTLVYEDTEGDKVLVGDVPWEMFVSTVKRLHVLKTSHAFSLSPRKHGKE
# Chain of UniProt Q9XED8 (whole entry, looked up): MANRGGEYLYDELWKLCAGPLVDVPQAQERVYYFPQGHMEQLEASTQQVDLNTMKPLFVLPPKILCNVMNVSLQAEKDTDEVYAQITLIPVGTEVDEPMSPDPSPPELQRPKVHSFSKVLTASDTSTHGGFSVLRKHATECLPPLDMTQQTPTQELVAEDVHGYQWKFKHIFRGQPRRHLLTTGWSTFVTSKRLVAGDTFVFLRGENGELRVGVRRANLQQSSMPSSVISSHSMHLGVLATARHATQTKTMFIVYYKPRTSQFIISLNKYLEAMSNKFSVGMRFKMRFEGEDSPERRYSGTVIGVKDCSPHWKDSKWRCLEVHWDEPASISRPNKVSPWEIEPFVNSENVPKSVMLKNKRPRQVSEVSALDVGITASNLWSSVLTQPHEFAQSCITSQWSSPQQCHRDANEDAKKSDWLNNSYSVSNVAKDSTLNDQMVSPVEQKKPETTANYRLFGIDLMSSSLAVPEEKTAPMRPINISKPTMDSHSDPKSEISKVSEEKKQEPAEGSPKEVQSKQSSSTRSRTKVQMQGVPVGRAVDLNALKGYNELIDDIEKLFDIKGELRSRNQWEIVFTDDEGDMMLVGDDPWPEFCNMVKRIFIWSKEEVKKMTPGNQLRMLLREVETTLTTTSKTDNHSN
# Chain of UniProt P93022 (whole entry, looked up): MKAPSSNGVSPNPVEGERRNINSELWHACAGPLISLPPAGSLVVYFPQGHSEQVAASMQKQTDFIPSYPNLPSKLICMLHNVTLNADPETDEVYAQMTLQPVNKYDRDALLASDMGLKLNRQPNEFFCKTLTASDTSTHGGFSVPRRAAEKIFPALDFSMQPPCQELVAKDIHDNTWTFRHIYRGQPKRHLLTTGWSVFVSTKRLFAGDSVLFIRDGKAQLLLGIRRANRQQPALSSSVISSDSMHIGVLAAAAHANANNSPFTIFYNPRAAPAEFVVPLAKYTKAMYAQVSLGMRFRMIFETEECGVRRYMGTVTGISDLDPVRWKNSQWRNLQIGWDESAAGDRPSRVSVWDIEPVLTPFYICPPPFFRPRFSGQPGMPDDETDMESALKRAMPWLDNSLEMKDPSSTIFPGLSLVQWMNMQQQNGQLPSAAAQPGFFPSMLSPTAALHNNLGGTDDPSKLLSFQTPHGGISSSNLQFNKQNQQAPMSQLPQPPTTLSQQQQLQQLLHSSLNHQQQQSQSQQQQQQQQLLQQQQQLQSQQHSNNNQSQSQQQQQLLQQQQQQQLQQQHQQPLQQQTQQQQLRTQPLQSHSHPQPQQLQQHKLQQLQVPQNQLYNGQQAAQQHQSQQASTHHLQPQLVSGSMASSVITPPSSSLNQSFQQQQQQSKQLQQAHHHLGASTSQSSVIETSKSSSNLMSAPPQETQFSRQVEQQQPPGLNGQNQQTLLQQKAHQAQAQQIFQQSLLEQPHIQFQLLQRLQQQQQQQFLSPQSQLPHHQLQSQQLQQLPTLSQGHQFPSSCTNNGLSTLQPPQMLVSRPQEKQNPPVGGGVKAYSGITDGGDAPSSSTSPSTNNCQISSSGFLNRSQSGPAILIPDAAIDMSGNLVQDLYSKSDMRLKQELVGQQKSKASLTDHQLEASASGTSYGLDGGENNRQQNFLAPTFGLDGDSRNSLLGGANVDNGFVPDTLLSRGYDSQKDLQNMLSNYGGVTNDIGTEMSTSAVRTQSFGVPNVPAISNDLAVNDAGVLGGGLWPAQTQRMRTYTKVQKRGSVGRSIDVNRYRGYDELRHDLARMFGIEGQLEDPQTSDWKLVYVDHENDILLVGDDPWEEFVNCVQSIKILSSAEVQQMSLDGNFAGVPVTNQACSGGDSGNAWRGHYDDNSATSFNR
# Chain of UniProt Q94JM3 (whole entry, looked up): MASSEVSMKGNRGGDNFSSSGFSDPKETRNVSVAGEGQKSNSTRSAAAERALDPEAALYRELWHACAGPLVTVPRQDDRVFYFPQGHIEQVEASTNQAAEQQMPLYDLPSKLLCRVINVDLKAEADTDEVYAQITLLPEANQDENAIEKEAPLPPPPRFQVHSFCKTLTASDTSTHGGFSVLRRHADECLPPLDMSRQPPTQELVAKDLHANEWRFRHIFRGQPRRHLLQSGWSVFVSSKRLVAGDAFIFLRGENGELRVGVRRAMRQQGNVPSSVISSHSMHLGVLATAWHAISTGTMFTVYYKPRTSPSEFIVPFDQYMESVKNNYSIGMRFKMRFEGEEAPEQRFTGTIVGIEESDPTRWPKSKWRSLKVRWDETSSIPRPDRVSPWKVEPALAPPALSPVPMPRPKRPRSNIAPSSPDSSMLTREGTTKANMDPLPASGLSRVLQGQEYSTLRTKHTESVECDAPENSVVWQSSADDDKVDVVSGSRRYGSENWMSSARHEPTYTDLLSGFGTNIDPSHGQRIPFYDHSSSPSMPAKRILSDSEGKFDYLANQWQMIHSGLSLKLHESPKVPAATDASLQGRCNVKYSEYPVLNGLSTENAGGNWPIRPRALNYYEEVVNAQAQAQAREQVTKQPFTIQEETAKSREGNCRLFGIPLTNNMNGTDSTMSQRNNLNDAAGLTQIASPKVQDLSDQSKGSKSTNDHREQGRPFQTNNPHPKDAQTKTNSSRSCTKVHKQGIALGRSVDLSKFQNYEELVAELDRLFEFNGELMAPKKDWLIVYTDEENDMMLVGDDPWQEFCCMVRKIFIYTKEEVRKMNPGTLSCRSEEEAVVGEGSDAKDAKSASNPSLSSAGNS

# Block 1
# Target: CCND1, cyclin fold, Cln2 fusion (human)
# Technique: yeast growth competition, sequencing
# Medium: yeast
# Setting: weak parent motif
# Relative to: not given
# Reading: higher = stronger binding
# Starting sequence: REV3L docking peptide (human); PPVIIKYIIINRF; partner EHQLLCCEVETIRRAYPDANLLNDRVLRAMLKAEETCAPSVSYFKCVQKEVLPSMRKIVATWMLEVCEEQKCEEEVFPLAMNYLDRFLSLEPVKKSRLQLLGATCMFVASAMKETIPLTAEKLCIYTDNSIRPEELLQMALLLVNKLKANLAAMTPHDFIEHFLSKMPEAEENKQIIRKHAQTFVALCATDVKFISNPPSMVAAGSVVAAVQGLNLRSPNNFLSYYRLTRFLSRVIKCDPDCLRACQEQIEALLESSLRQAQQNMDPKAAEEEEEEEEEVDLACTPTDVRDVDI
Substitution,normalised enrichment score
Y7A,0.528
I4A,-0.0456
N11A,-0.602
R12A,0.00587
P2A,0.279
F13A,0.0785
K6A,-0.432

# Block 2
# Substance: PhoQ, residues 284 288 289 292 302 303 AANNSF
# Technique: Sort-seq
# Measured: YFP reporter
# Medium: E. coli
# Setting: PhoQ-PhoP variant library
# Added: 10 µM Mg2+
# Relative to: high Mg2+ state
# Reading: higher = stronger signaling
target,fold induction
"PhoP, residues 12 14 15 18 19 VGHWL (Escherichia coli, UniProt P23836)",2.36
"PhoP, residues 12 14 15 18 19 TPWTL (Escherichia coli, UniProt P23836)",0.878
"PhoP, residues 12 14 15 18 19 LHHYF (Escherichia coli, UniProt P23836)",41.6

# Block 3
# Target: Ras GTPase-activating protein-binding protein 1, C-terminal RGG region (G3BP1, Homo sapiens, UniProt Q13283)
# Chain of UniProt Q13283 (whole entry, looked up): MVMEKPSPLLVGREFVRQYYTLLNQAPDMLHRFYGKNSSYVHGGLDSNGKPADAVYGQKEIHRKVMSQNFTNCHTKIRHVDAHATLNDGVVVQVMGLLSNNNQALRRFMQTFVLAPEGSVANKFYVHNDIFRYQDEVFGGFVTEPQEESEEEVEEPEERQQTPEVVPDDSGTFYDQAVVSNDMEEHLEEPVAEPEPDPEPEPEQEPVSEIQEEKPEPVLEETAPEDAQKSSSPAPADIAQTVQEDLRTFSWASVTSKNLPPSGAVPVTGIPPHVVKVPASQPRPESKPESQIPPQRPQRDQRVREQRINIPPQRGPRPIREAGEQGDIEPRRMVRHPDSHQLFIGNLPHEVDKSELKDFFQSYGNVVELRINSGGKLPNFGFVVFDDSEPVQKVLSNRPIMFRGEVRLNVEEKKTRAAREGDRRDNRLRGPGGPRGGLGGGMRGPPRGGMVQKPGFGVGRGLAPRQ
# Technique: RNA Bind-n-Seq
# Molecule type: RNA
# Medium: in vitro
# Concentration: 1 µM
# Setting: whole 134-nt RNA, ends assumed
# Added: 150 mM KCl
# Relative to: input library
# Reading: higher = stronger binding
Strand,log2 enrichment
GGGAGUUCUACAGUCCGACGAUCGCAGGAAGUAAAAAAAAAUGGAAAUGCUUCGGAUAGUGGCAGGGGUGGGGGUUGCUAAGGAAAGGGUGGGAUGGGAGUGGGUAAAGAGUUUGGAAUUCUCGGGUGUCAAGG,1.91
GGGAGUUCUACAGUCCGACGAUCAUUUUUUGUAUCAAGUCCCUGAAUGGAAGUAUGACGUUGGGUCCCUCUGAAGUUUAAUUCUGAGUUCUCAUUAAAAGAAAUUUGCUUUCAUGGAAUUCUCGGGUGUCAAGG,-2.01
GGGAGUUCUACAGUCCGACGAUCGCAGGAAAUAAAAACAAAUGGAAAUGCUUCGGAUAGUGGCAGGGGUGGGGGUUGCUAAGGAAAGGGUGGGAUGGGAGUGGGUAAAGAGUUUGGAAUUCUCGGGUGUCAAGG,2.1
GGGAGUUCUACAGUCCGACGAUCAUGGACUUGCACAUGAUGAACUGUGAACUUCUAGCCACAUGUAGUGCCCUUGGGUACUUGGAGGGAGACACUUACCAUAAGGAACCAGAUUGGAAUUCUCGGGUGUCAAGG,-1.55
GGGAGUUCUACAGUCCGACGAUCCCUGUGCUACACAUCGUAUGUACCGAAUCGGGUUUUUUUGGGUUUUUUUGGGAAAAAGGGAAAGUAUUAUGUUACGCCGUUCGGAUCUGCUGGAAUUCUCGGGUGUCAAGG,-1.92
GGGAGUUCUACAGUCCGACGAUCUGGGAGGUGGAUUUUGUUUAUUUUUUUAGCUCAUUUCCAGGGGGGGGAAUUUUUUUUUAAUAUGUGUCAUGAAUAAAGUUGUUUUUGAAAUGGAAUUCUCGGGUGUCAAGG,2.9
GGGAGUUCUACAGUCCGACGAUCAGUCCUGUGCUACACAUCGUAUGUACCGAAUCGGGGCCCCGGGCCCCGGGCCCCGGGGAAAGUAUUAUGUUACGCCGUUCGGAUCUGCACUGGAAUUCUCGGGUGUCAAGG,-2.13
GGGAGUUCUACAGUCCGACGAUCCCUCAAGUCCUGUGCUACACAUCGUAUGUACCGAAUCGGGGAGGGAGGAGGGAAAGUAUUAUGUUACGCCGUUCGGAUCUGCACUUCCAGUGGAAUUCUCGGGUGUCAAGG,0.5
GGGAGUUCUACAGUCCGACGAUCUGGUAUUCAUGGGUAGUUUGAAAUAUCCAGAUGAGAAUGGAUUUGAUGCCUUCCUGAAGAAGCAUGGGGGUAGUGAUAAUGCCUCAACUGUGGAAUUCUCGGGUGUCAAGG,-1.31
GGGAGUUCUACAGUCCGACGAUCCACAGACAACACGCACCCACACAGACACAGAGGGAAGGGGUUGGGAUGGGGACAGGGUGCACAGCAGGGCGGGGUAGGAACCCAGCCCCUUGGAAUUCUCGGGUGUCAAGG,-0.931
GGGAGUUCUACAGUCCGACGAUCAAGUCCUGUGCUACACAUCGUAUGUACCGAAUCGGUUUUUGGGUUUUUGGUUUUUGGAAAGUAUUAUGUUACGCCGUUCGGAUCUGCACUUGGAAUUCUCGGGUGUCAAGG,-1.48
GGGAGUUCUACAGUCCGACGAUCUCAAGUCCUGUGCUACACAUCGUAUGUACCGAAUCGGGUUGGUUGGGGUUGGGGAAAGUAUUAUGUUACGCCGUUCGGAUCUGCACUUCCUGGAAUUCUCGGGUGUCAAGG,0.555
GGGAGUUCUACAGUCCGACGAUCUAACUUUAGAGCAGGAUCUGAUGGAUAUGGCAGUGGACGUGGAUUUGGGGAUGGCUAUAAUGGGUAUGGAGGAGGACCUGGAGGUGGCAAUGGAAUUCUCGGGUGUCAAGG,-0.908
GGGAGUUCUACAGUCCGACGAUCUGGCCCUGGUGGCAUGCGGGCAGGAAGAGGUGGCCUCAUGGAUCGUGGUGGUCCCGGUGGAAUGUUCAGAGGUGGCCGUGGUGGAGACAGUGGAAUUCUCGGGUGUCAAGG,2.33

# Block 4
# Molecule: B1 (IAA11)
# Technique: two-hybrid
# Setting: weak activation fusion
# Reading: higher = firmer interaction
# B1: IAA11 (Arabidopsis thaliana, UniProt Q38829); chain MEGGSASGSASALSNDENLVVSCEDSSSPIGNELELGLTLSLGRKGYRDCRVYADDSSSSSSSSSLSRASVIAGIKRTADSMAATSGQVVGWPPIRTYRMNSMVNQAKASATEDPNLEISQAVNKNRSDSTKMRNSMFVKVTMDGIPIGRKIDLNAHKCYESLSNTLEEMFLKPKLGSRTLETDGHMETPVKILPDGSSGLVLTYEDKEGDWMLVGDVPWGMFIGSVRRLRIMKTSEATGKAQMIL
partner,relative to,positive tests
"IAA27 (Arabidopsis thaliana, UniProt Q9ZSY8)",out of 2 tests,0
"ARF9 519-638 (Arabidopsis thaliana, UniProt Q9XED8)",out of 2 tests,0
"ARF7 1030-1164 (Arabidopsis thaliana, UniProt P93022)",out of 4 tests,2
"ARF22 498-598 (Arabidopsis thaliana, UniProt Q9C8N7)",out of 2 tests,0
"ARF2 727-859 (Arabidopsis thaliana, UniProt Q94JM3)",out of 4 tests,0
"IAA28 (Arabidopsis thaliana, UniProt Q9XFM0)",out of 4 tests,2
"ARF4 660-788 (Arabidopsis thaliana, UniProt Q9ZTX9)",out of 2 tests,0

# Block 5
# Target: ABI1, truncated, D143A, DHFR fusion (Arabidopsis thaliana)
# Technique: DHFR PCA, deep sequencing
# Medium: yeast
# Setting: methotrexate growth selection, single substitutions
# Added: (+)-ABA 17 µM
# Relative to: wild-type fitted maximum
# Reading: higher = stronger binding
# Starting sequence: PYL1, truncated, DHFR fusion (Arabidopsis thaliana); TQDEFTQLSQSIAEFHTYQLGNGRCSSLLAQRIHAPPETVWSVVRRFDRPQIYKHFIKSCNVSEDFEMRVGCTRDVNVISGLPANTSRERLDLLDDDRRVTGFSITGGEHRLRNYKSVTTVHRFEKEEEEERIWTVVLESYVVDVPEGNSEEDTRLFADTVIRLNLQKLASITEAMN; partner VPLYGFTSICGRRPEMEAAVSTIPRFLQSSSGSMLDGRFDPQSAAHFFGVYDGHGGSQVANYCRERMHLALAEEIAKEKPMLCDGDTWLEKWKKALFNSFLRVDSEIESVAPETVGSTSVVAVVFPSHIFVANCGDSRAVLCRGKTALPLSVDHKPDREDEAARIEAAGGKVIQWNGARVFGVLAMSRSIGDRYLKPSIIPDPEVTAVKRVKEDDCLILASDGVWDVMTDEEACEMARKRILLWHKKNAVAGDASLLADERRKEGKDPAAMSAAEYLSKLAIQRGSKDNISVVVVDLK
Substitution,relative binding score [%]
Q167M,78.1
Y115T,15.3
K58P,-7.73
Q19C,72
R111E,-7.1
I12R,29.4
G21P,79.8
A35Q,15.3
G108P,0.331
R123W,36.9
F15Y,83.5
L82T,1.95
L29R,42.8
V40L,-0.803
V70I,80.5
D75A,75.7
H122E,45.5
V78W,43.5
R24F,42.9
G107L,-3.24
S63I,75.4
L28P,-19.8
S59P,8.49
H122N,38.5
T1F,81

# Repeated from above (block 5):
Substitution,relative binding score [%]
L82T,1.95
L29R,42.8
V40L,-0.803
V70I,80.5
D75A,75.7
H122E,45.5
V78W,43.5
R24F,42.9
G107L,-3.24
